{"data": "Measurements gathered from unrelated publications", "note": "A part holds a random share of what one study measured. Changes are numbered by the printed parent chain."}
{"data": "Set 1", "target": "RING finger protein unkempt homolog, zinc fingers 1-6, GST-SBP tag (UNK, Homo sapiens, UniProt Q9C0B0, residues 30-357)", "method": "RNA Bind-n-Seq", "form": "RNA", "medium": "in vitro", "tested at": "not given", "setting": "RNA with constant flanks, human-mouse chimeric sites, ends assumed", "baseline": "input RNA pool", "direction": "higher = stronger binding", "UniProt Q9C0B0, sequence (30-357, looked up)": "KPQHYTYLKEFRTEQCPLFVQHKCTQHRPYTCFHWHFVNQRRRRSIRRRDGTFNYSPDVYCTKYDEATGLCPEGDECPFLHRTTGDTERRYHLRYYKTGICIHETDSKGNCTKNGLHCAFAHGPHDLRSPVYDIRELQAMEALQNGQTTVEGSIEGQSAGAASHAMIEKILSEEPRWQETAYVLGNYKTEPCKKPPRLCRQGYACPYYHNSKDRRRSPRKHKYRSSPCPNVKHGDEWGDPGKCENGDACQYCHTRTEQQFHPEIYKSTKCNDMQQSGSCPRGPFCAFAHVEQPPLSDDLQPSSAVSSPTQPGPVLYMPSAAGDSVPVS"}
{"Oligonucleotide": "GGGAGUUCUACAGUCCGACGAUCUUAAUCCCCUUUACUGCUCCCCCACUUCUCAUGGUAAUAACAAAGUCUUAUAUUCCCGUCCUAGCUUUCACUCAGAUGGCUUAUGGAGCCGGUUUCCUAGCUUUCUUGGGUGGGAUCAGACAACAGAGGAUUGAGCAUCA", "bound/input enrichment": "0.493 ratio"}
{"Oligonucleotide": "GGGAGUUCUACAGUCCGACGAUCUUACCCGAGAACGAGGAUGAAUUGGAGAGCACCAACAGGCGCUACACCAAGAGGGACUGCAGCACUUUCCUCAGAACUAGCGAGACGGGCAUCGUGGACCAGGUCAUGGUCACUCUCAACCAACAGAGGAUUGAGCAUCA", "bound/input enrichment": "0.14 ratio"}
{"Oligonucleotide": "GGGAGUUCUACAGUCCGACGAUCGUGACAGGUGUUAAGAUUUCCCCUCAGCAAAGAAGUGCAGUAGUCACCAUAAUUCCAUCUGUGGUGAGUGCCAGUCAGAUUGUGGAGCUGGUCCCAGACCUCAGUUUAGACAUGGGAACUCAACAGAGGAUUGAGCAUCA", "bound/input enrichment": "0.266 ratio"}
{"Oligonucleotide": "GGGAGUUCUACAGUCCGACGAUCGGGACUGAUUCAUCCCAAGGACAGGCCGCCCAGUCUGAUGCCUGGACUGAUGACAGUAUGUUAGGGCCUAGUCAAAAUGUUGAAGCUGAGUCAAUUCAGGAUGCCAUGAGUAUGGAAGAGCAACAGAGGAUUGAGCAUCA", "bound/input enrichment": "0.385 ratio"}
{"Oligonucleotide": "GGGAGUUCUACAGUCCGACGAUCGGAAGUACAUUAAUGGAGAUUGAUGGUGACAAAGGCAAACAAGGCGGGCCCACCUACUACAUAGACACCAAUGCCCUCCGCGUGCCCAGGGAGAACAUGGAGGCCAUCUCACCACUCAAGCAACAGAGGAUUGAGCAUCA", "bound/input enrichment": "0.27 ratio"}
{"Oligonucleotide": "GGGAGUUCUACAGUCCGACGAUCAGAGAUAAAGCAUCUAGGAACAUGCGAGGCUCCCGGAUGAAUGGGUUGCCUAGCCCCACUCACAGCGCCCACUGUAGCUUCUACCGAACCAGAACCUUGCAGGCACUGAGUAAUGAGAAGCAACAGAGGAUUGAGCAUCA", "bound/input enrichment": "0.105 ratio"}
{"Oligonucleotide": "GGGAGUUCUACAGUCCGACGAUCAAUUUCCUGUCAUACUUUGUAGCAAGACACAUCAGACUUACAGAGCACCUGGCCACAUUCUAGGUUUGUGUUAUUUCUCAGCUAUGGGGGUAUGAUUAUGAGAACACUGCUUAACUAAUGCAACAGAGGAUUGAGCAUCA", "bound/input enrichment": "0.384 ratio"}
{"Oligonucleotide": "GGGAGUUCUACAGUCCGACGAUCACCUCCCCCUCCCGCCUCACCCCACCCCCGCUUUUUGAAAGUGUGUUGGCGUUUCUUUUCCUUCCCCAGUUAGAAUUAUUACAGUUUCCCCCGCAAGGGUCUAUCGAAGGGCUUGACGGACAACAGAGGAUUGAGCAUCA", "bound/input enrichment": "10.4 ratio"}
{"Oligonucleotide": "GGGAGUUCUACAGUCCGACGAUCCACAGAGCAGCACCUACCCCCUCCUCCUUUCCACACCUGCAAACCCUUUUACUUGGGCUGAAUAUUUAGUGUAAUUACAUCUCAGCUUUGAGGGCUCCUGUGGCAAAUUCCCGGAUUAAACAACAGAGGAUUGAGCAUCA", "bound/input enrichment": "0.937 ratio"}
{"Oligonucleotide": "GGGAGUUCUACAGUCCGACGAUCAAUUUCCUGUCAUACUUUUUAGACAUUCACAUCAGACUUACAGAGCACCUGGCCACAUUCUAGGUUUGUGUUAUUUCUAAGCCUUUUGGGUAUGAUUAUGAGAACACUGCUUAACUAAUGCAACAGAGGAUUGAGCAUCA", "bound/input enrichment": "0.281 ratio"}
{"Oligonucleotide": "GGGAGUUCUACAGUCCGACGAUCAAAGAGUGGAUAGAGUGUGCACAUGGAAUCGGUGGGACCCGGGCGAAAAAGGAGUGCAAGAUAGAAUUCGAUGACUUCGAAGAGUGCUUGCUUCGGUACAAAACGAUGAGGCGAAUGCAUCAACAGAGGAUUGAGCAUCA", "bound/input enrichment": "0.395 ratio"}
{"data": "Set 2", "target": "CCNA1, cyclin fold, Cln2 fusion (human)", "method": "yeast growth competition, sequencing", "medium": "yeast", "setting": "weak parent motif", "baseline": "not given", "direction": "higher = stronger binding", "parent": "CDC6 docking peptide (human); TLKGRRLVFDNQL; partner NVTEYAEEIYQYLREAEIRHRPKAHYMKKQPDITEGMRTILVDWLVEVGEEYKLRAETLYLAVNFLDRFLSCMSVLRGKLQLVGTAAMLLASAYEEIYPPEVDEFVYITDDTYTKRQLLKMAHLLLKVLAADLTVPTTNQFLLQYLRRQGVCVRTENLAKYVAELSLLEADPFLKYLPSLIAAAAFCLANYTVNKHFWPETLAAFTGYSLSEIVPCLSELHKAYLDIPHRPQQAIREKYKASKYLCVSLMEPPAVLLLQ"}
{"Variant": "F9L", "normalised enrichment score": 0.268}
{"Variant": "R5K", "normalised enrichment score": -0.0916}
{"Variant": "N11S", "normalised enrichment score": 0.16}
{"Variant": "N11L", "normalised enrichment score": 0.0298}
{"Variant": "R5Q", "normalised enrichment score": -0.35}
{"Variant": "D10P", "normalised enrichment score": -0.056}
{"Variant": "L7T", "normalised enrichment score": 0.00696}
{"Variant": "K3S", "normalised enrichment score": 0.312}
{"Variant": "L2I", "normalised enrichment score": -0.179}
{"data": "Set 3", "target": "Sal-like protein 4, full length isoform A (SALL4, Homo sapiens, UniProt Q9UJQ4, residues 1-1053)", "method": "universal PBM", "form": "double-stranded DNA, one strand shown", "medium": "in vitro", "tested at": "600 nM", "setting": "8-mer, flanks averaged, mean of replicates", "direction": "higher = stronger binding", "UniProt Q9UJQ4, sequence (whole entry, looked up)": "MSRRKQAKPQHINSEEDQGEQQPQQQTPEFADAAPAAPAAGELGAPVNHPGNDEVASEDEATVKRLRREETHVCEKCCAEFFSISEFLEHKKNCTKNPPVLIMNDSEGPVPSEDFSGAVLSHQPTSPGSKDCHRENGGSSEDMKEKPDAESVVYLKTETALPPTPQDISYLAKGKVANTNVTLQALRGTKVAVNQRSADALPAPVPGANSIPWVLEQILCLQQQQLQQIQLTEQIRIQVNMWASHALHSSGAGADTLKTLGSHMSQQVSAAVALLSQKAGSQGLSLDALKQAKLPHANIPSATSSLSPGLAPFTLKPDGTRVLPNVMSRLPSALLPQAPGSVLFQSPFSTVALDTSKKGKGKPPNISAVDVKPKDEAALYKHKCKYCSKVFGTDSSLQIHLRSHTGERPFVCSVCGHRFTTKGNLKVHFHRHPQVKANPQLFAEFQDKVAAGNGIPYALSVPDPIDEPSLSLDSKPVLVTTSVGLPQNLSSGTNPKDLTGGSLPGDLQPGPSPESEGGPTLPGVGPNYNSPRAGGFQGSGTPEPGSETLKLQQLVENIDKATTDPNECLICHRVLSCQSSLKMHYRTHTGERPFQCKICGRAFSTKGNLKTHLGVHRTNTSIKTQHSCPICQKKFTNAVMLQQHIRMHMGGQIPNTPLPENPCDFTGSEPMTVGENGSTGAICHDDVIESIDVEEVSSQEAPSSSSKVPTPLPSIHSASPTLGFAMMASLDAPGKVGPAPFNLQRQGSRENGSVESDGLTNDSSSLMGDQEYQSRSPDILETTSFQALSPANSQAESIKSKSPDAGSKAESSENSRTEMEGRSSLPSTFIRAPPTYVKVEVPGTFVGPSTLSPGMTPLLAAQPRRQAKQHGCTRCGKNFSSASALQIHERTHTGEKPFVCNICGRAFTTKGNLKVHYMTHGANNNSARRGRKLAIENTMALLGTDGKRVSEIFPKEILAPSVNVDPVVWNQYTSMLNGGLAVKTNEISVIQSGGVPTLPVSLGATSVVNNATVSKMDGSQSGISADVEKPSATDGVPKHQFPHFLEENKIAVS"}
{"Oligonucleotide": "GCGAGAGA", "E-score": -0.231}
{"Oligonucleotide": "CAGATCCC", "E-score": -0.204}
{"Oligonucleotide": "GTAGCTAA", "E-score": 0.0408}
{"Oligonucleotide": "ACCGGACC", "E-score": -0.338}
{"Oligonucleotide": "ATCGGAAA", "E-score": 0.231}
{"Oligonucleotide": "GCGCCCCC", "E-score": -0.334}
{"Oligonucleotide": "CCGAGTAA", "E-score": 0.0131}
{"Oligonucleotide": "CCTAGTAG", "E-score": -0.0781}
{"Oligonucleotide": "CAGCCGTA", "E-score": -0.196}
{"Oligonucleotide": "TACTAAGA", "E-score": 0.127}
{"Oligonucleotide": "CAATAGGA", "E-score": 0.134}
{"Oligonucleotide": "ACAGCGTC", "E-score": -0.0122}
{"Oligonucleotide": "AGACTACC", "E-score": -0.00912}
{"Oligonucleotide": "CCTAGAGA", "E-score": -0.0818}
{"Oligonucleotide": "CAGACCCA", "E-score": -0.147}
{"data": "Further values, each from its own experiment"}
{"Substance": "PhoQ, residues 284 288 289 292 302 303 TASMAF", "target": "PhoP, residues 12 14 15 18 19 TPWLV (Escherichia coli, UniProt P23836)", "assay": "Sort-seq, item: YFP reporter", "system": "E. coli", "setting": "PhoQ-PhoP variant library, with: 10 µM Mg2+", "scale": "baseline: high Mg2+ state, higher = stronger signaling", "endpoint": "fold induction", "value": 13.9}
